{"data": "Experimental data of several laboratories", "note": "Each numbered part is a random draw from the data of one study; scales do not carry over between parts."}
{"data": "Block 1", "target": "PABPC1L2, full length, GST fusion (mouse, UniProt A0ABA7IW68)", "method": "RNAcompete", "form": "RNA", "matrix": "in vitro", "tested at": "20 nM", "setting": "7-mer, probes averaged, single round", "baseline": "mean of 7-mers", "direction": "higher = stronger binding", "Residues (chain)": "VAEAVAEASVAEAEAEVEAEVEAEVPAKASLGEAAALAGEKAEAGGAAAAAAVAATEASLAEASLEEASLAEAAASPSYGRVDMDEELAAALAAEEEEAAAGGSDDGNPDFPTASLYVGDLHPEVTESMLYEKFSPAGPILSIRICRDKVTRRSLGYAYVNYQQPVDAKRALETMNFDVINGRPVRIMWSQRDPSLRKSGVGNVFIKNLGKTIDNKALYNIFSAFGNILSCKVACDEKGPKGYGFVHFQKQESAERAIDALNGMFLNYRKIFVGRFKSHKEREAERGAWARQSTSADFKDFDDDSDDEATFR"}
{"Oligonucleotide": "UGGGGAU", "7-mer Z-score": 0.316}
{"Oligonucleotide": "CCAAUUC", "7-mer Z-score": -0.336}
{"Oligonucleotide": "GGCGGCA", "7-mer Z-score": 0.372}
{"Oligonucleotide": "UGAAGAU", "7-mer Z-score": 0.0207}
{"Oligonucleotide": "GCUCAUC", "7-mer Z-score": -0.354}
{"Oligonucleotide": "GUAAAGC", "7-mer Z-score": 0.265}
{"Oligonucleotide": "CUCUGGG", "7-mer Z-score": -0.0989}
{"Oligonucleotide": "CGGUAUG", "7-mer Z-score": 0.0243}
{"Oligonucleotide": "AAACAAA", "7-mer Z-score": 5.43}
{"Oligonucleotide": "AAGAUCG", "7-mer Z-score": 0.456}
{"Oligonucleotide": "CGCUCGG", "7-mer Z-score": -0.213}
{"Oligonucleotide": "GUGAUCC", "7-mer Z-score": -0.166}
{"Oligonucleotide": "UCGUCCA", "7-mer Z-score": -0.391}
{"Oligonucleotide": "GUCCUGG", "7-mer Z-score": -0.184}
{"Oligonucleotide": "CACGAAC", "7-mer Z-score": -0.00833}
{"Oligonucleotide": "GGUCUAG", "7-mer Z-score": -0.168}
{"Oligonucleotide": "GCCGAUG", "7-mer Z-score": -0.13}
{"Oligonucleotide": "AGACCGG", "7-mer Z-score": -0.28}
{"Oligonucleotide": "ACGGGCG", "7-mer Z-score": 0.273}
{"Oligonucleotide": "CCAGCUU", "7-mer Z-score": -0.206}
{"Oligonucleotide": "AGACGUU", "7-mer Z-score": -0.34}
{"Oligonucleotide": "UCUACAU", "7-mer Z-score": -0.34}
{"Oligonucleotide": "GGGAGGG", "7-mer Z-score": 0.463}
{"data": "Block 2", "target": "RNA binding protein fox-1 homolog 2, RRM domain, GST-SBP tag (RBFOX2, Homo sapiens, UniProt O43251-10, residues 100-194)", "method": "RNA Bind-n-Seq", "form": "RNA", "matrix": "in vitro", "tested at": "365 nM", "setting": "natural RNA segment, single round, ends assumed", "baseline": "no-protein control", "direction": "higher = stronger binding", "shared flanks, not repeated": "GGGAGUUCUACAGUCCGACGAUC … UGGAAUUCUCGGGUGCCAA", "Target sequence (chain)": "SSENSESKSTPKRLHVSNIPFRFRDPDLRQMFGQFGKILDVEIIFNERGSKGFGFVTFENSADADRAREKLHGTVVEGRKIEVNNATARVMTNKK"}
{"Oligonucleotide": "AAUUUCCUGGGCAGUUGAUGCAUCUCUGGGAAAAACACCAGAAAGCUUGCUGAAAUGGAAAACUUGGAAGAAUUGUUCAUCUCUUAGGCUUCCAUUUGGAUGGGCCUGCC", "RBNS enrichment (R)": 0.448}
{"Oligonucleotide": "GAUGGGUGGGGAAGAGGUUGCUCUUUACUCUCCAUCUCUGACACAAAGUGUAGCUGCUAGAGGGAUGACCUCUCCUUCAACUUGUCCUGAAGCACUUACAUUUAGUUGUU", "RBNS enrichment (R)": 0.297}
{"Oligonucleotide": "ACCCAUCUUUCCCUGCAGCUCACACCUACGCCCCAAAAGCAGUUCCCAAAGCAGUCAUGGUGCACAUCCUAACUUUGGGGUUGGCGGUGAGCCGGCCCCACUCUCUGGGU", "RBNS enrichment (R)": 0.306}
{"Oligonucleotide": "CACAGCUGAAUCAGGAGACACAAAGAUGAGACUGUGUUUGGUUACAUUUUCCAAAGUUUCAUUGCAUUCUCCCUUGGGGAGGCUGUGAGAGAGGGCUUGUAUCCCUCUUG", "RBNS enrichment (R)": 0.264}
{"Oligonucleotide": "CCCACCUCAUUGUGUACCAUGAGGGGUCCUUGGGAAAUGUCUUACCUCUUGUGUUGAAUGGAGACCUGGGUUGAGAUGUGUCUGCUCUUGUAGGAAGAUCUUUUGUAUCA", "RBNS enrichment (R)": 1.32}
{"Oligonucleotide": "AAGGUCGAGACUGGAGAAGCACACUUCCUUCUUGGGCAGCUUCCCACCAUGGCACAGGUGCUAUGGCGGGAUGGUCAUCUCACUCCCUAGCUUCCUGUGGGUCAGGAGUG", "RBNS enrichment (R)": 0.166}
{"Oligonucleotide": "ACUAUCCUAAGCAAUGUGUGCUUGCCUGUUAGUGAGGGUGUAGGUUGAGCCCAAGUGGUGGAGUCCUAUUCAUGGGCCUCAGUGCAUGCUGGCUUUAGCCCCAUGCUCAG", "RBNS enrichment (R)": 1.62}
{"Oligonucleotide": "CACUGGGUGGUUCCCACUGCAUGACCCUCUAUCCCUGCCAUCUGUCCCCAUGGUUUCCAGCUCAAUCCACCCCUGACCCAUCUGUCAGCUUUUUCCCAGGGAGCCGUUUC", "RBNS enrichment (R)": 1.55}
{"data": "Block 3", "target": "Ras GTPase-activating protein-binding protein 1, full length (G3BP1, Homo sapiens, UniProt Q13283)", "method": "RNA Bind-n-Seq", "form": "RNA", "matrix": "in vitro", "tested at": "200 nM", "setting": "whole 134-nt RNA, ends assumed", "together with": "150 mM LiCl", "baseline": "input library", "direction": "higher = stronger binding", "library": "7-deaza-guanosine replaces G", "shared flanks, not repeated": "GGGAGUUCUACAGUCCGACGAUC … UGGAAUUCUCGGGUGUCAAGG", "UniProt Q13283, sequence (whole entry, looked up)": "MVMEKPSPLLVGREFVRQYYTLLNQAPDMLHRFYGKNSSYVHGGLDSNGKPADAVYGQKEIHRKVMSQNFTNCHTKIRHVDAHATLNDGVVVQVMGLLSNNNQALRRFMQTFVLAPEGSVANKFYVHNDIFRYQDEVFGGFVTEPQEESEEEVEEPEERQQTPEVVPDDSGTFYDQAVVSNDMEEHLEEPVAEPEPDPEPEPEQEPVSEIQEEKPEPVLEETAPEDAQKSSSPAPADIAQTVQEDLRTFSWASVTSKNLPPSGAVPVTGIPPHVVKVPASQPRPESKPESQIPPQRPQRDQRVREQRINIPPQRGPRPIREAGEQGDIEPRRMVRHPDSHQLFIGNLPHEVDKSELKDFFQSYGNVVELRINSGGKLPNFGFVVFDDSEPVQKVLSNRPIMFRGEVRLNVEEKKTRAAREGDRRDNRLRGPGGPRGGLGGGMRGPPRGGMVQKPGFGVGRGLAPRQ"}
{"Oligonucleotide": "GCAGGAAGUAAAAACAAAUGGAAAUGCUUCGGAUUGUGGCAGGGGUGGGGGUUGCUAAGGAAAGGGUGGGAUGGGAGUGGGUAAAGAGUU", "log2 enrichment": 0.332}
{"Oligonucleotide": "CUCAAGUCCUGUGCUACACAUCGUAUGUACCGAAUCGGGUUGGGUUGGGUUGGAAAGUAUUAUGUUACGCCGUUCGGAUCUGCACUUCCA", "log2 enrichment": 0.227}
{"Oligonucleotide": "UUCCUCAAGUCCUGUGCUACACAUCGUAUGUACCGAAUCGGCGGGCGGCGGAAAGUAUUAUGUUACGCCGUUCGGAUCUGCACUUCCAGC", "log2 enrichment": 1.22}
{"Oligonucleotide": "AAGUCCUGUGCUACACAUCGUAUGUACCGAAUCGGUUUUUUUGGUUUUUUUGGAGGAAAGUAUUAUGUUACGCCGUUCGGAUCUGCACUU", "log2 enrichment": -0.421}
{"Oligonucleotide": "AGUCCUGUGCUACACAUCGUAUGUACCGAAUCGGAAAGGUUUUUUUGGAAAAAAAGGAAAGUAUUAUGUUACGCCGUUCGGAUCUGCACU", "log2 enrichment": -1.95}
{"Oligonucleotide": "CCUCAAGUCCUGUGCUACACAUCGUAUGUACCGAAUCGGAGGUGGAAAAAGGAAAGUAUUAUGUUACGCCGUUCGGAUCUGCACUUCCAG", "log2 enrichment": -0.675}
{"Oligonucleotide": "CACAGACAACACGCACCCACACAGACACAGAGGGAGGGGGUUGGGAUGGGGACAGGGUGCACAGCAGGGCGGGGUAGGACCCCAGCCCCU", "log2 enrichment": -0.851}
{"Oligonucleotide": "AAGUCCUGUGCUACACAUCGUAUGUACCGAAUCGGGCCCCGGGGCCCCGGGCCCCGGAAAGUAUUAUGUUACGCCGUUCGGAUCUGCACU", "log2 enrichment": -0.567}
{"data": "Block 4", "target": "Histone acetyltransferase KAT6A, winged helix 1, GST fusion (KAT6A, Homo sapiens, UniProt Q92794, residues 1-85)", "method": "protein binding microarray", "form": "double-stranded DNA, one strand shown", "matrix": "in vitro", "tested at": "not given", "setting": "8-mer, flanks averaged, mean of 2 arrays, mostly near background", "baseline": "not given", "direction": "higher = stronger binding", "Residues (chain)": "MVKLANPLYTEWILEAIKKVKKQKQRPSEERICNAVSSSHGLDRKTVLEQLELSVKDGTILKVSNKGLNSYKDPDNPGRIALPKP"}
{"Oligonucleotide": "GGCTAAGA", "E-score": -0.049}
{"Oligonucleotide": "CCATACCC", "E-score": -0.00432}
{"Oligonucleotide": "ATCAAGAG", "E-score": -0.135}
{"Oligonucleotide": "CCGCGACC", "E-score": 0.339}
{"Oligonucleotide": "CACTTTAC", "E-score": -0.101}
{"Oligonucleotide": "TCACTGAA", "E-score": -0.0588}
{"Oligonucleotide": "AAGCACCG", "E-score": 0.132}
{"Oligonucleotide": "GTTGGGGA", "E-score": -0.201}
{"Oligonucleotide": "AATCCTGC", "E-score": -0.104}
{"Oligonucleotide": "GCCCGCAC", "E-score": 0.311}
{"Oligonucleotide": "AGTAAAGC", "E-score": 0.00102}
{"Oligonucleotide": "CTCCTGAC", "E-score": -0.0478}
{"Oligonucleotide": "CTGTGTGC", "E-score": -0.0988}
{"Oligonucleotide": "AATTATTA", "E-score": -0.00701}
{"Oligonucleotide": "CCGGAACC", "E-score": 0.187}
{"Oligonucleotide": "GCCTTTGA", "E-score": -0.0602}
{"Oligonucleotide": "AGTATTAA", "E-score": -0.129}
{"Oligonucleotide": "ACCATTAG", "E-score": -0.0624}
{"Oligonucleotide": "CCACCATA", "E-score": -0.123}
{"Oligonucleotide": "TAGTAAAA", "E-score": -0.00889}
{"Oligonucleotide": "AACGGCAG", "E-score": 0.234}
{"Oligonucleotide": "CGTGTGAA", "E-score": -0.126}
{"Oligonucleotide": "ATGGGAAG", "E-score": -0.244}
{"Oligonucleotide": "ATGTACAT", "E-score": 0.0309}
{"Oligonucleotide": "CTTACGCC", "E-score": 0.0927}
